Published values collected from several papers.
Every numbered part comes from another study and shows a few of its results, in no order.

Series 1
Target: Histone acetyltransferase KAT6A, both winged helices, GST fusion (KAT6A, Homo sapiens, UniProt Q92794, residues 1-181)
Method: protein binding microarray
Molecule type: double-stranded DNA, one strand shown
Medium: in vitro
Concentration: not given
Setting: 8-mer, flanks averaged, mean of 2 arrays, mostly near background
Relative to: not given
Reading: higher = stronger binding
Construct (chain): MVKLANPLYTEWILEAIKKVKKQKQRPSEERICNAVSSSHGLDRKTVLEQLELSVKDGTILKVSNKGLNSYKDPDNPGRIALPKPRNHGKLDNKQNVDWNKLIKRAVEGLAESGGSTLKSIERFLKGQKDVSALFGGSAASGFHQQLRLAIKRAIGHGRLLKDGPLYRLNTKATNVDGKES
| Strand | E-score |
| --- | --- |
| AGATGAAC | -0.041 |
| TGGTACAA | -0.184 |
| GCACATAC | 0.0646 |
| GACCCATC | -0.042 |
| AATGGTCA | -0.165 |
| ATATCTTC | -0.12 |

Series 2
Target: RNA binding protein fox-1 homolog 2, RRM domain, GST-SBP tag (RBFOX2, Homo sapiens, UniProt O43251-10, residues 100-194)
Method: RNA Bind-n-Seq
Molecule type: RNA
Medium: in vitro
Concentration: 365 nM
Setting: natural RNA segment, single round, ends assumed
Relative to: no-protein control
Reading: higher = stronger binding
Target sequence (chain): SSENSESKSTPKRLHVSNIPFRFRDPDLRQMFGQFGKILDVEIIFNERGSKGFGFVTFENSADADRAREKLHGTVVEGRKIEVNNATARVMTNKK
| Strand | RBNS enrichment (R) |
| --- | --- |
| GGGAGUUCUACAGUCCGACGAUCCAUCUUUUUUAUUAUAAUUUAUUGCAAAUUUUUUUCUGAAUAAAUAUAUGUUGUGUGAAAAAGCAAAGUGUGAUUUUGGUGAGGAAGCACUCAGAAGGGAGGGCUUAUGUUGGAAUUCUCGGGUGCCAA | 1.29 |
| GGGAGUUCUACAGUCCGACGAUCCCUAAGCUAACCACACGUGUGUAUCUCAAGGGACUUAAAUUCAGCUGUCUGUAGUGAAUUCAAGUGGGAAAUUUUCAAAAGUUUCUCCUGCUGGAAAUAAGGUAUAAUUUUGGAAUUCUCGGGUGCCAA | 0.368 |
| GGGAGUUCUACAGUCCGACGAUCUCAUCAUGCAGCCUUCUGGGUUGGUUGCUAUAUAUAUCUUUUUUCCUUGAUGUCCCGUUCUCUUCCACAGCCCUGAGGUCUUACGAAUUUUUCUACUUUCUUUUUGCUGUUGGAAUUCUCGGGUGCCAA | 0.797 |
| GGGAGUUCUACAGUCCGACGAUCCCUUUGUGGAUAUAUAAGCAAAUUGAGCUUGGGUGAUUUUUAUGGAGACAAUAAUUAGACAAUACUGUAUAAUUAGUUUUACUUAAUAGAUUAUCAUCUUGUGAGAAGAGUGGAAUUCUCGGGUGCCAA | 0.26 |
| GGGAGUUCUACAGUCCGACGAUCAGCGCCUACUCCUUCUUGGCGAAUGCUGCCUUCAGAUGCUUACCAAGUGGUCACUGCAUCUAGUAAGAUUAUAUUUCCAGUACACUUCCUUAGGGCAGAAACACCAUCCUUGGAAUUCUCGGGUGCCAA | 0.361 |
| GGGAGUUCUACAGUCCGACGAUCUUGUAAACUAUACUGCAUGCUGACAGAGAAGCGCUCUUUUAGCUAAGCCCAGAACUUCUCUUUUGACAAUAAAGUACUGAGCAGUGGUAUCAUGAGGGCCACCUCCACAUUGGAAUUCUCGGGUGCCAA | 0.945 |

Series 3
Target: Protein C-ets-1 (ETS1, Homo sapiens, UniProt P14921, residues 1-441, full length assumed)
Method: protein-binding microarray
Molecule type: double-stranded DNA, one strand shown
Medium: in vitro
Concentration: not given
Setting: k-mer, scored over probes, only values ≥0.25
Reading: higher = stronger binding
Target sequence (chain): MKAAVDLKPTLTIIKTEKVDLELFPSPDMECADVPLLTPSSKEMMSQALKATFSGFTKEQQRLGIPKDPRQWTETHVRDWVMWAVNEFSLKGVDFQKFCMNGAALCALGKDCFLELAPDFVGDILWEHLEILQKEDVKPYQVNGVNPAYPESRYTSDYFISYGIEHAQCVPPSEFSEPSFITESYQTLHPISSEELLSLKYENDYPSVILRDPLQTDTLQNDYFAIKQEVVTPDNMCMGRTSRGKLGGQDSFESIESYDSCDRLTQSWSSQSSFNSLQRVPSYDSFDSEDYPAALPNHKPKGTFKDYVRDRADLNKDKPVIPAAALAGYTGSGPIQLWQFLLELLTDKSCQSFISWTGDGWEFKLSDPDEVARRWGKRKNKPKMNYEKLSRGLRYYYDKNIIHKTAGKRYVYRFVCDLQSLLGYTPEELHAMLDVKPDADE
| Strand | E-score |
| --- | --- |
| AGGACCGG | 0.294 |
| GCATCCGC | 0.458 |
| TCCGTCGA | 0.261 |
| AACCCGGA | 0.354 |
| AATCCGGA | 0.42 |
| AATCCCGG | 0.276 |

Mixed results
| Substance | target | test | test system | setting | scale | endpoint | result |
| --- | --- | --- | --- | --- | --- | --- | --- |
| PhoQ, residues 284 288 289 292 302 303 DDMDFR | PhoP, residues 12 14 15 18 19 VQALL (Escherichia coli, UniProt P23836) | Sort-seq, measured: YFP reporter | E. coli | PhoQ-PhoP variant library, together with: 10 µM Mg2+ | relative to: high Mg2+ state, higher = stronger signaling | fold induction | 0.799 |
